Experimental data from different studies.
Protocols differ between the studies behind these lines. Numbers after ± are the reported error.

SMILES = O=C(NCc1ccc(F)cc1F)c1cn2c(c(O)c1=O)C(=O)NCC2; cell line = HOS; read-out = cell growth or viability; time = 48 h; CC50 = > 250 µM
SMILES = Clc1ccc(-c2nnn(C34CC5CC(CC(C5)C3)C4)n2)cc1; cell line = MDCK; method = MTT; time = 72 h; CC50 = 4 ± 0.5 µg/mL
SMILES = C[C@H]1CO[C@@H]2Cn3cc(C(=O)NCc4ccc(F)cc4F)c(=O)c(O)c3C(=O)N12; cell line = HOS; read-out = cell growth or viability; time = 48 h; CC50 = > 250 µM
SMILES = COc1cccc(-c2nc(C)c(C(=O)Nc3ccc(C(C)(C)C)cc3)s2)c1; cell line = HEK-293T; method = MTS; matrix = 10% FBS medium; time = 72 h; setting = normal cell line; CC50 = 117 ± 2.05 µM
SMILES = COCC(C)n1ccn2cc(C(=O)NCc3ccc(F)cc3F)c(=O)c(O)c2c1=O (stereo not shown); cell line = HOS; read-out = cell growth or viability; time = 48 h; CC50 = > 250 µM
SMILES = Cc1nc2ccc(CN(C)c3ccc(C(=O)N[C@@H](CCC(=O)O)C(=O)O)s3)cc2c(=O)[nH]1; cell line = HepG2-NTCP; read-out = viability; CC50 = > 25 µM
SMILES = CC(C)CCCC(C)CCN1CCn2cc(C(=O)NCc3ccc(F)cc3F)c(=O)c(O)c2C1=O (stereo not shown); cell line = HOS; read-out = cell growth or viability; time = 48 h; CC50 = > 250 µM
SMILES = COc1cccc(-c2nc(C)c(C(=O)Nc3cc(OC)ccc3OC)s2)c1; cell line = HEK-293T; read-out = cell growth or viability; method = MTS; time = 72 h; CC50 = > 300 µM
SMILES = CC[C@H](C)C(=O)O[C@H]1CCC=C2C=C[C@H](C)[C@H](CC[C@@H]3C[C@@H](O)CC(=O)O3)[C@H]21; cell line = HepG2-NTCP; read-out = viability; CC50 = > 25 µM
SMILES = C[C@@H]1CCO[C@H]2Cn3cc(C(=O)NCc4ccc(F)cc4F)c(=O)c(O)c3C(=O)N12; cell line = HOS; read-out = cell growth or viability; time = 48 h; CC50 = > 250 µM
SMILES = O=c1[nH]c(=O)n([C@H]2C[C@H](O)[C@@H](CO)O2)cc1F; cell line = HepG2-NTCP; read-out = viability; CC50 = > 25 µM
SMILES = COc1cccc(-c2nc(C)c(C(=O)Nc3ccc(Oc4ccccc4OC)cc3)s2)c1; cell line = HEK-293T; read-out = cell growth or viability; method = MTS; time = 72 h; CC50 = > 300 µM
SMILES = CC[C@@H]([C@H](C)O)n1ncn(-c2ccc(N3CCN(c4ccc(OC[C@@H]5CO[C@@](Cn6cncn6)(c6ccc(F)cc6F)C5)cc4)CC3)cc2)c1=O; cell line = HepG2-NTCP; read-out = viability; CC50 = > 25 µM
SMILES = Nc1cc(-c2nnn(C34CC5CC(CC(C5)C3)C4)n2)ccc1O; cell line = MDCK; method = MTT; time = 72 h; CC50 = 36 ± 2 µg/mL
SMILES = COc1cccc(-c2nc(C)c(C(=O)Nc3cc(OC)c(OC)c(OC)c3)s2)c1; cell line = HEK-293T; read-out = cell growth or viability; method = MTS; time = 72 h; CC50 = > 300 µM
SMILES = Nc1ncn([C@H]2C[C@H](O)[C@@H](CO)O2)c(=O)n1; cell line = HepG2-NTCP; read-out = viability; CC50 = > 25 µM
